Measured values from different studies.
Every numbered part comes from another study and shows a few of its results, in no order.

Set 1
Target: Interferon regulatory factor 7, full length, phosphomimetic (IRF7, Homo sapiens, UniProt Q92985, residues 1-503, S101K/S471D/S472D/S475D/S476D/S477D/S483D/S484D/S487D)
Method: protein-binding microarray
Molecule type: double-stranded DNA, one strand shown
Medium: in vitro
Tested at: 250 nM
Setting: 60-bp whole probe
Added: salmon DNA 0.4 mg/ml
Relative to: random background probes
Direction: higher = stronger binding
Constant ends, left off below: GCCTAGCAC … GTCTTGATTCGCTTGACGCTGCTG
Target sequence (chain): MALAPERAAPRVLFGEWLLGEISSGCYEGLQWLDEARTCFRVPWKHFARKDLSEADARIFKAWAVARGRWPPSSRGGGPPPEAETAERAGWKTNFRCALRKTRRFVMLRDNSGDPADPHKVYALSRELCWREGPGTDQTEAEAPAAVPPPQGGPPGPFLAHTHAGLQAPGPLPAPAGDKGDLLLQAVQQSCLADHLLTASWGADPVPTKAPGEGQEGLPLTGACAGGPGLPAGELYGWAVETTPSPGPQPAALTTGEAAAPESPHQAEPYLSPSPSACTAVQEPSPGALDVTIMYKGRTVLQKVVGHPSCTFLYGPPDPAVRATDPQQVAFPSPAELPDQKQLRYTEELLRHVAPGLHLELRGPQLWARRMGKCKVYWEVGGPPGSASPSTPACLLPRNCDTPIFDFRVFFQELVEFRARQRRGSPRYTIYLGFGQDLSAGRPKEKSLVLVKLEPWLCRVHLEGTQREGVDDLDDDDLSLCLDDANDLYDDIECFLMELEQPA
With `GACGATTTCGCGACTGGAGACGTGCTA` the log fluorescence was 0.395 z-score.
For `GACGAACTGGAGTTTCGAGACGTGCTA`, the log fluorescence was 2.77 z-score.
For `TTAGATATTAGACTGGATTAGTGCTAG`, the log fluorescence was 0.041 z-score.
For `GACGATTTCAGTTTGGAGACGTGCTAG`, the log fluorescence was 0.773 z-score.
The log fluorescence of `TTAGGTTTTCTTCTCCTTTAGTGCTAG` is reported as 1.23 z-score.
The log fluorescence of `TCCATTTTCAGAATTTACTTGTGCTAG` is reported as 1.09 z-score.
`GACGGAATCGGTTTCGGGACGTGCTAG` gave a log fluorescence of 6.08 z-score.
`TCACATGTTGCTCTCCGACTGTGCTAG` gave a log fluorescence of 0.0459 z-score.
With `TTAGGTATCCTTCTCCTTGAGTGCTAG` the log fluorescence was 0.585 z-score.

Set 2
Target: PABPC1L2, full length, GST fusion (mouse, UniProt A0ABA7IW68)
Method: RNAcompete
Molecule type: RNA
Medium: in vitro
Tested at: 20 nM
Setting: 7-mer, probes averaged, single round
Relative to: mean of 7-mers
Direction: higher = stronger binding
Construct (chain): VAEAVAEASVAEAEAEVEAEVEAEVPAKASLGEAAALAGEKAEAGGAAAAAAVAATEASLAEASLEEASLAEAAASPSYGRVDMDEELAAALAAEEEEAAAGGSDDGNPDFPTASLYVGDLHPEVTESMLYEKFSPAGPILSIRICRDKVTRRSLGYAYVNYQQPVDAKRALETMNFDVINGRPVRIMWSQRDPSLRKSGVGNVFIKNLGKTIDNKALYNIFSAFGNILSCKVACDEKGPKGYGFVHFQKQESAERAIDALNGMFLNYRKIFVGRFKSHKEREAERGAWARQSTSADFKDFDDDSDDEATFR
The 7-mer Z-score of `GGCUGCG` is reported as 0.0696.
`GCCGUGA` gave a 7-mer Z-score of -0.195.
`GUUCUCC` gave a 7-mer Z-score of -0.373.
For `ACUCGGG`, the 7-mer Z-score was 0.211.
The 7-mer Z-score of `CGGGCAA` is reported as 0.349.
For `UCAAGUU`, the 7-mer Z-score was -0.344.
With `UCAAUAU` the 7-mer Z-score was -0.168.
`CUAAAAA` has a 7-mer Z-score of 16.9.
The 7-mer Z-score of `CAAACGG` is reported as 0.196.
`AAACUCU` has a 7-mer Z-score of 0.265.
`UGACAAA` has a 7-mer Z-score of 1.15.
The 7-mer Z-score of `AUGGAUC` is reported as -0.0772.
`ACCCUAG` has a 7-mer Z-score of -0.0808.
With `AUACGAA` the 7-mer Z-score was 0.195.

Set 3
Target: RING finger protein unkempt homolog, zinc fingers 1-6, SBP tag (UNK, Homo sapiens, UniProt Q9C0B0, residues 30-357)
Chain of UniProt Q9C0B0 (30-357, looked up): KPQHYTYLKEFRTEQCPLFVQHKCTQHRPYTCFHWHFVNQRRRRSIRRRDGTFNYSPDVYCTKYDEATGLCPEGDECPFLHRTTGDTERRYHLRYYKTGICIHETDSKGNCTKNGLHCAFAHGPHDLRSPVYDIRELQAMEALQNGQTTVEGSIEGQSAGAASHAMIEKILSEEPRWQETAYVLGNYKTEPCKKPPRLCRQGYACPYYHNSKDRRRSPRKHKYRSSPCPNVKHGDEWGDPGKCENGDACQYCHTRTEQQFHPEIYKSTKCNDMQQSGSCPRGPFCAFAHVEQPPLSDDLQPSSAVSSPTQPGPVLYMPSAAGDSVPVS
Method: RNA Bind-n-Seq
Molecule type: RNA
Medium: in vitro
Tested at: 100 nM
Setting: RNA with constant flanks, vertebrate orthologous sites, ends assumed
Relative to: input RNA pool
Direction: higher = stronger binding
Constant ends, left off below: GGGAGUUCUACAGUCCGACGAUC … CAACAGAGGAUUGAGCAUCA
With `UCCCUUUGCGCCUGUGUCCUUGGAGGGGCCUCCUCUCCACCAAGAAGAAAAAAGCUCGCCCAGAUUCUUUACGCAUCUGACUCUACCGUUCUGGUUUUGUUUUCUAUUAUUUUUGGAUAU` the bound/input enrichment was 0.144 ratio.
`GAGCUAAAGGAGAUAGCAUCUUUAUUUUUGUAUCAAAGAUAAAGGUUAUUUUGAAAUUAUUAGGAUUUUUACACAACUCUGAAACCUGUUGCUUUUUGUAAACAAAUUGUUUGCUCUUAG` gave a bound/input enrichment of 1.2 ratio.
For `AGAAGCUCAAGGAUUCAGAACUGGUUUUGCAAAUGUCCCAGGCAGAUAUGGAACAAACACUCGUGGUCAGCCCCGACCGUAAUAAACACCAUUAUUUAUUAUACUUAAGGGUAUUGACUU`, the bound/input enrichment was 0.299 ratio.
`CAUCUCUCAUUUUAUAUGUCCAAAAUGGCCUUCGAUUUUUAAAUGGUUGCCAGUUGUAAUUAGCCCUGCCCUCAUGAAUUAUUGCCGUAGUUCACCACAGUAUCUGUUUGAAUUACUGCA` gave a bound/input enrichment of 0.388 ratio.
With `CCCCAGCACGUUGGUAAAGACUGUGGAUUGGCUGCUUGUGUUUUCCUUGUUCUUUUUAAUUAGUUUCAUUAUGUACGCUACCAUCCGCACUGAGAGUAUCCGGUGGCUGAUUCCAGGACA` the bound/input enrichment was 0.946 ratio.
`UCCCCUGAGCCGGGACAGAUUUUUUUUUUUAAUGUCUUGAAACUUAAAACUCUGUGCUUGUAGGAGACUGUAACCUUUUUGUCUUUUUUUUUUUUUAAAAAAAAAAACAAUCUCCACCUC` has a bound/input enrichment of 0.535 ratio.
`GCCUCCAACAGGCAAAUUCAGGGAGAGAGAGGCUUCAGGGAAUAUAAAUUUAUUUAAUAGUAGUGAUCAUAAAGUAUAAAUUUGAUAUAAUUGAAUAAUUUGUGAGGGGUGAUGAUAAAU` has a bound/input enrichment of 1.32 ratio.
For `GCAAACCCCAUCACUGUGAUAUUUAAAAUAUGCACAGUCUUAAUUCUUUCCAAAUGAUCCUAGUAUUUUUCUAGCUCUAUCUUUGUAUCUCAUACUGUUAUUUAUCAGAAUUUUUCCCUG`, the bound/input enrichment was 1.74 ratio.

Set 4
Target: RNA binding protein fox-1 homolog 2, RRM domain, GST-SBP tag (RBFOX2, Homo sapiens, UniProt O43251-10, residues 100-194)
Method: RNA Bind-n-Seq
Molecule type: RNA
Medium: in vitro
Tested at: 365 nM
Setting: natural RNA segment, single round, ends assumed
Relative to: no-protein control
Direction: higher = stronger binding
Constant ends, left off below: GGGAGUUCUACAGUCCGACGAUC … UGGAAUUCUCGGGUGCCAA
Construct (chain): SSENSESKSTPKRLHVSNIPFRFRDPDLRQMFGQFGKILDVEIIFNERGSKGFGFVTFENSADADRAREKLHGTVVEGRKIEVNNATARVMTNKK
`GAGUGCCUAAUCUUGUGGUUAUAAUGUACAAUGAAAUAAUCUUGUGGGGGUUUUUUGUUUUCUCAAGAGGAAUUUUUUUUUUUUAUCAUUGCAGAGGUAUGUCAUUGGUU` — result for “RBNS enrichment (R)”: 0.509.
Under “RBNS enrichment (R)”, `CCUGUACAGGUAGAUGAACCAGGCGAGAGUUUUAAUCAGCCUUUUCUUGUCCCCUUUGUAAGAAAGAGAUGCUUGCCAUAGAGAAGGACAUGAGUACAUUAAAAAUAAUU` is recorded as 1.87.
For `CCUGUGUGUCACUUCCCUCACCUCACAGGCUGUGACCCUACCCUGGGUCCCUUGUACAUAACUCCUUGUGACAAAACCCUCUGGAAGUUCUGGACCCCAUUUUUGAUAGG`, “RBNS enrichment (R)” read 0.387.
`CUAAUCCACCUUGCAUCCUGCUGUCCAGGUGGACUUCUGUUAGGGACCCAAGGGCCCUUUGGUGUGUAGUGUACAGCACCUUAUUUUAGCAUCAAUAAAUCCAUUAUCCA`: “RBNS enrichment (R)” 0.541.
`CCACUCAGCUCACCUCUCCCUCCACCUCCUCUCCACCUGCUGGUGAGAGGUGCAAAGAGGCAGAUCUUUGCUGCCAGCCACUUCAUCCCCUCCCAGAUGUUGGACCAACA` — result for “RBNS enrichment (R)”: 0.41.
`ACAUUUCUUUAUGUGCUAAAUGUUUGCUCUUUAAAAAUGUCUCAGAGUUAGUUACCAGCUUCCUUGAUUUCAUCUAUACACAAUGAUUAAGUGCAUUUAAUAUUGGUAAU`: “RBNS enrichment (R)” 0.403.
For `UUCCUGCCUCCUCCCAAGGGAAGGAAGUGAGAGCAGUGGUCCUCUGGUUCAUUUAGCUGUUUGGCAGAAUUCUUACACUAUCCUCAGCCUCAGUUAUGAAAUGACCAAGA`, “RBNS enrichment (R)” read 0.367.
`UAACUUCAAAACUUUUAAGAGCAGUGAAGUUGGUCAGGGACAUGUGGCCACUUAUUAUUACCUAAAGAAAACAUUUGUUCCCUGUUCAUUUUAUUUUAGGGGCCAGAUCU`: “RBNS enrichment (R)” 0.286.
